Experimental data from different studies.
A part holds a random share of what one study measured.

Series 1
Target: RING finger protein unkempt homolog, zinc fingers 1-6, GST-SBP tag (UNK, Homo sapiens, UniProt Q9C0B0, residues 30-357)
Sequence of UniProt Q9C0B0 (30-357, looked up): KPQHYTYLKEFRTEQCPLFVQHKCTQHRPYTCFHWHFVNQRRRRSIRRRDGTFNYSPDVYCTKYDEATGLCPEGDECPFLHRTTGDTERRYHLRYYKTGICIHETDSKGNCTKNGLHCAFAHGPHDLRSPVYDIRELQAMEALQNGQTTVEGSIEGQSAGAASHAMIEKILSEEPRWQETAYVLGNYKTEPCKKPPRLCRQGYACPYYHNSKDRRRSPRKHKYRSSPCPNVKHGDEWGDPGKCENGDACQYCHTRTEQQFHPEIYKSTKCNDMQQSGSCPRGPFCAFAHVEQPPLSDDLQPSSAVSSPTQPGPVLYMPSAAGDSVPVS
Technique: RNA Bind-n-Seq
Molecule type: RNA
Sample: in vitro
Tested at: not given
Setting: RNA with constant flanks, human-mouse chimeric sites, ends assumed
Relative to: input RNA pool
Reading: higher = stronger binding
Strand | bound/input enrichment [ratio]
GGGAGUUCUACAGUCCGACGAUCAGAAUCUUGGGACUGUUUUACUUAAUUGGUCAUUGGUAGCUUAACAAACAUGGAGAUAAGAUUAGAAAUCUUGACAUCAACAGGUAUUAAGCAGAAAAAACCAUGGCCCAGAGUAUCCUGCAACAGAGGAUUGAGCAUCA | 0.104
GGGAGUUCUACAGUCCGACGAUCCCCCAAUACCAUUUGCAGGUCUGGAACUGCACUCUCUUUUUUAAAAAACAUGUAUACAUUUUAGGGCUGUAGACUUAUUUUCCUGGUUUUGUUUUUCAUUGCUGACUUUUGAGCACAGAACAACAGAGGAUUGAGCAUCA | 1.71
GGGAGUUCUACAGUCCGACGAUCCGGAAGUUCUUGAUUUAUCAUUUUUCUCUUUUCUUUCUUUCCUUUAGGAAAAGCCUAAAGAUUAGGUUGUAAGAAAAACAGAAGCCAUGUUUCGAAGACCUGUGUUACAGGUAUUUCGUCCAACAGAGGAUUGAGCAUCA | 0.166
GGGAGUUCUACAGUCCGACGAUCUCUUUAAAAAAAAAAUUACCUUUUCUGACAGUGCUUUAUGGAGUAAAGAUCCACGUUCAAGCUCAAAGAGCAAAGGCUUUGCACGGAGCUCAAACAUCUGAUGAAGAAAGAUUUCUGAGACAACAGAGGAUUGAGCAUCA | 0.109
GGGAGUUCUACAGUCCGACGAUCCAGUCCCCGUGUCCCAGUGCAGGACGAGAACAUGGACAACUCAAAGCGGACCCUCUAUUGUAGUUCUUGAUUCUCGAAAUGUGCUAUUAUUGUUUGUCUUUUUUUUUAAAAGAAAAGAGACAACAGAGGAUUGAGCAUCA | 0.116
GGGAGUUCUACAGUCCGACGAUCAGUGUGCAGGAAUUCAUGACCUUUACAAGUCAACUGAUUGUGGAACGCUCGGGGAAAGGCAGCAGAGCUUCUGUCAAAGAACAAGAGUAUCUGUGCCAUGUCUACGUCCGGAAUGAUAGUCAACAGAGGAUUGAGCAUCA | 0.125
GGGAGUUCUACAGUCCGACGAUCUCCUGGUCGUGUCCCAGUGCAGGACGAUGUGAACAAAAACUCAAAGCGGACCCUCUACUGUAGUUGAUGAUUCUCGAAAUGUGCUAUUAUUGUUUGUCUUUUUUUUUUUUUUUUUAAAGACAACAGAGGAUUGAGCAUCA | 1.57
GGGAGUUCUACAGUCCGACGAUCAUGGAACAUUUCGAUGCGUCACUCAGUACCUAUUUCAAGGCCUUCCUAGGCCCUCGAGAUACAAGAGUCAAAGGAUGGUUUCUUCUGGACAAUUACAUCCCUACGUUUGUCUGUUCUGUUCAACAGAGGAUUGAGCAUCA | 0.102

Series 2
Target: RNA binding protein fox-1 homolog 2, RRM domain, GST-SBP tag (RBFOX2, Homo sapiens, UniProt O43251-10, residues 100-194)
Technique: RNA Bind-n-Seq
Molecule type: RNA
Sample: in vitro
Tested at: 365 nM
Setting: natural RNA segment, single round, ends assumed
Relative to: no-protein control
Reading: higher = stronger binding
Construct (chain): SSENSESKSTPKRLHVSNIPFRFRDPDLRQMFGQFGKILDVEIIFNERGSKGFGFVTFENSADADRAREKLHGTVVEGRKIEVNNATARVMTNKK
Strand | RBNS enrichment (R)
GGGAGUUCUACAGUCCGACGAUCCUUAGUUUGUGAUGAUUACAUUGCUUUUUGUUGUCCAGUAGUUUAGUUUGUGUACAUAUAUACACAUAUAUAUUUUGCACUACACAAACGAUAACAUUUUAAGGACUAAUUGGAAUUCUCGGGUGCCAA | 0.38
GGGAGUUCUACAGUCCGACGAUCUAGAAAGACACUUAUAUGACACUCAGGUGUCUGCUAUUUAUCUUGAUUUCUAAAUGGUUCUGGAUUCCAUGUUUUCUCUAUUCGUUUAGAAGAAGUUGGAGGAUGGUGCUUGGAAUUCUCGGGUGCCAA | 0.274
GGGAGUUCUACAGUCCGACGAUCUGUGCACCUUGGGGUUUUGUAAUGACAGUGCUAAAAAAAAAAAGCAUUUUUUUUUUAUGAUUUGUCUCUGUCACCCUUGUCCUUGAGUGCUCUUGCUAUUAACGUUAUUUUGGAAUUCUCGGGUGCCAA | 0.597
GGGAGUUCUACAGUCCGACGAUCCAGGAACUGCAACGGACUCACACUGUGCACGCUGGAUAGCGAAUAGCAGUAAGUAGCACACCCAUCACUUAGACAAAUACCCAAGGGAGUUCUGCUCACCGAUAUUUGCCUGGAAUUCUCGGGUGCCAA | 0.251
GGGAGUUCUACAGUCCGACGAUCUGAACUCCAGUCUUCAGCUCGAAGUUGCCUCUAGGGUUCCUCCUGGUCACCCCCGGGCCCAGCCUGGCUGGCGAGAAACAAACACGGUUUGAGAGGCUGUGGCACACUGAUGGAAUUCUCGGGUGCCAA | 0.372
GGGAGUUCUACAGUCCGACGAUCCAGACUUGAGUUGCCUGGCUACAUUGCUGAAAGCUUUGUAGCACUUGAAAAUUAAAUAUUGAUUUGUUUCACUAUUGAUGGGAAGAAGGGGAAUAAAGACUUGCAUAGGUUGGAAUUCUCGGGUGCCAA | 0.301
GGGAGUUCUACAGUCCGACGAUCGAUAAUUGUCUAGUGACCCUCUCAUCACUGUAACCAUCGCGCCUGGCCUAGAUGUCGUGUUUUGGAUGCUGUGUUUUCAAUAAAUGCCUCUGGGGCCCUGCUUUUACCCGUGGAAUUCUCGGGUGCCAA | 0.45
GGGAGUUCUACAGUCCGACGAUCAGUGCCUUCAGUUUAGCAUUGCUAUAAAAUGAACCCUGAAUUAGCGAAACAGUGUAACAUUAUUCUGUGUUCUUUAUUAGCUAACUACAAGUGUAUGCUUUCCACUCUGGUGGAAUUCUCGGGUGCCAA | 0.61

Series 3
Target: Centromere-binding protein 1, full length, N-terminal tag (CBF1, Saccharomyces cerevisiae, UniProt P17106, residues 1-351)
Sequence of UniProt P17106 (whole entry, looked up): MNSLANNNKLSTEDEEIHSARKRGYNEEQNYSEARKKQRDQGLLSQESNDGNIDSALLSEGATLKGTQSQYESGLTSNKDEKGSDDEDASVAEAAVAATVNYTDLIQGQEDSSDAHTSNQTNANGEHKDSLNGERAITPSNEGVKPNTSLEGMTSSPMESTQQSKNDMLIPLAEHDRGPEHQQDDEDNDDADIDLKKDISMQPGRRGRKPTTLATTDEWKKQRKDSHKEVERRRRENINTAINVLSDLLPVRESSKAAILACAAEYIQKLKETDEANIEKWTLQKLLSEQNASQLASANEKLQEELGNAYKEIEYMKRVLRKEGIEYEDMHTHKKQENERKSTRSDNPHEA
Technique: protein-binding microarray
Molecule type: double-stranded DNA, one strand shown
Sample: in vitro
Tested at: 0.8 µM
Setting: whole 60-bp probe, no competitor
Reading: higher = stronger binding
Strand | fluorescence intensity
GAAGGCTCTTTTCATGATGTGCCACATGAGTACTAGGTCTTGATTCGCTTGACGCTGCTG | 579 a.u.
GAAACTCCGTTCCATGGTGTGACTTTTTTAAGGTAGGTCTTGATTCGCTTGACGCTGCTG | 651 a.u.
CTATTATGTCTGACCCACGTATTATGTGGAGCATTCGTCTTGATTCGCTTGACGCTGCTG | 533 a.u.
CTAGTGTCAAGACCCCACATGTATACATGGATATTCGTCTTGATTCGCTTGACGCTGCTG | 599 a.u.
GAACTTAATAAAACTCATGTGAACCGTATGAAATAGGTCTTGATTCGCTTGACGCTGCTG | 680 a.u.
GAAACGCGCAACCATCATCAGAAATAAAATAAATAGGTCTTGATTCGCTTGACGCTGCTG | 578 a.u.
CTATAGTTCGCGCATCACGAGGTACGTGTTTAATTCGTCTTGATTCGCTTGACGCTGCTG | 2140 a.u.
TGTACGAAGCTATATCATGTATATATAGTAGTTAGGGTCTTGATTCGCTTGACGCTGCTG | 538 a.u.

Other studies, line by line
SMILES | host | sample | tested at | time | measurement | result
CC(C)(C)C(=O)Nc1cc(NC(=O)C(C)(C)C)cc(C(=O)Nc2c[nH]c(=O)[nH]c2=O)c1 | human | microsomes or S9 | 2 µM | 0.5 h | remaining compound | 0.685%

A few entries again (series 2):
Strand | RBNS enrichment (R)
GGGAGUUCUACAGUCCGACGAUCCAGACUUGAGUUGCCUGGCUACAUUGCUGAAAGCUUUGUAGCACUUGAAAAUUAAAUAUUGAUUUGUUUCACUAUUGAUGGGAAGAAGGGGAAUAAAGACUUGCAUAGGUUGGAAUUCUCGGGUGCCAA | 0.301
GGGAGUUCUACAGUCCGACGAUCGAUAAUUGUCUAGUGACCCUCUCAUCACUGUAACCAUCGCGCCUGGCCUAGAUGUCGUGUUUUGGAUGCUGUGUUUUCAAUAAAUGCCUCUGGGGCCCUGCUUUUACCCGUGGAAUUCUCGGGUGCCAA | 0.45
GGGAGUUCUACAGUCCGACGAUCAGUGCCUUCAGUUUAGCAUUGCUAUAAAAUGAACCCUGAAUUAGCGAAACAGUGUAACAUUAUUCUGUGUUCUUUAUUAGCUAACUACAAGUGUAUGCUUUCCACUCUGGUGGAAUUCUCGGGUGCCAA | 0.61
